Measured values collected from several papers.
Parts stem from different laboratories: compare values within a part only.

Sample 1
Target: RNA binding protein fox-1 homolog 2, RRM domain, GST-SBP tag (RBFOX2, Homo sapiens, UniProt O43251-10, residues 100-194)
Method: RNA Bind-n-Seq
Form: RNA
Medium: in vitro
Tested at: 365 nM
Notes: natural RNA segment, single round, ends assumed
Baseline: no-protein control
Reading: higher = stronger binding
Target sequence (chain): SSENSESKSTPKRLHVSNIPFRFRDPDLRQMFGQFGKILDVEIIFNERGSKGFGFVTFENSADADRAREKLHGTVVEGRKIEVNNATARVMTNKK
Oligonucleotide | RBNS enrichment (R)
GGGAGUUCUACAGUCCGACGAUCAAUUGUCAAUCAAUUUUACCAAUAACAAAGCCAAUAAUAUACUGUUAACAAAGACAAACUGCUUCGAGUUUUCUGUUUUCGUAGUGAGCUUAAAAUGCAUGACAGGAUAGUGGAAUUCUCGGGUGCCAA | 5.59
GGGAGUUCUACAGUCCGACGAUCUCACUGUGUAACAUUGGCUCACUUGGUGAGCAUAGGGUUGACUGAUAAAAUGUUUAAUUCCCUUGCUAGCUUGUGAGAAGAAUGAGUUGAUGACAUGCUCCAUACCAGUGUGGAAUUCUCGGGUGCCAA | 1.27
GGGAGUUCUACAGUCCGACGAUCCUCCUGCACUUUGGCCCCACCCACCCAUCCUAGCCUCUCAUGGCCUCCCACCCCCAUGGGUGCUAGGAGGAGGUGACUUUAUAUACCAGCUUCAUUGGGCUGCUUCCUCUUGGAAUUCUCGGGUGCCAA | 0.403
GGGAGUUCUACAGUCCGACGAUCCAGUCACAUGUUACACUUGAGCAACAAUUGUCUAGGCUAGAAAUAUAGAACCACACAAUAUUUAUCAUCAUUGGGUCAAUUUCUCCCCCUCUAUCAAGUGAGGAGAUUAAUGGAAUUCUCGGGUGCCAA | 0.312
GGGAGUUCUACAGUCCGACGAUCAAAAAAAAUAGUUUUUUUAGAGUAGAGUUAUUUUCUGGGAGAGUUACUACAAAUGCUUAUUCUCAUUGACUUAUUUCUUUCAUGGUAACUUUCGUUUUGGAGUGUUCAUUUGGAAUUCUCGGGUGCCAA | 0.649
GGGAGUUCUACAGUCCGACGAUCCCAGGCAGAGUAUAAAAGCAAUCUAUAUAUCAUUAAGCUGUGGAAGCUACAUUGGCAGCAGCGAAUGUUGCAGCUUCUUGUGCAAGUACACCCUUCAUGGAAGUGUUGACUGGAAUUCUCGGGUGCCAA | 0.393
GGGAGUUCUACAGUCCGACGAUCUAUGGAAGUUGUAGCCCUCUGCAGCUCAGCCCUGUACAUAUACCUGUCCCUCUCUGGCUUGGUCCCCUUCCUCCCUACUUUCUGUAAAUAUCUGUAUCUAAACCAGAAUAUGGAAUUCUCGGGUGCCAA | 0.442
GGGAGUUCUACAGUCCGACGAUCAGAAAGUGGGUUUGGAACGUAUGGUUUGGAAUUGCUUGUCAGACUCUGAAGAAGAUGUGUUUCAGCUUGGGAUUACAAACCCCAUUUAUAAUUUUUAAAUAUACUUGAAAUGGAAUUCUCGGGUGCCAA | 1.06

Sample 2
Target: Histone acetyltransferase KAT6A, winged helix 2, GST fusion (KAT6A, Homo sapiens, UniProt Q92794, residues 85-181)
Method: protein binding microarray
Form: double-stranded DNA, one strand shown
Medium: in vitro
Tested at: not given
Notes: 8-mer, flanks averaged, mean of 2 arrays, mostly near background
Baseline: not given
Reading: higher = stronger binding
Target sequence (chain): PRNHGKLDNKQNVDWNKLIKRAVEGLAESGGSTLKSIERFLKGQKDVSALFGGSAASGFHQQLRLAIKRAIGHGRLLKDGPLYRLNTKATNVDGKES
Oligonucleotide | E-score
CTTGGCTA | -0.03
TTATAAAA | 0.142
TGACGCAA | -0.0536
AAGTCTTG | -0.0804
GACCACTC | 0.0793
AGATTGCC | 0.044
AGGCCTAT | -0.1
GCAGGCAC | 0.0849
GGTGGTAC | -0.0183
CTAACTGA | 0.0678
AGCACTAT | -0.152
CCTACCCA | -0.203
GCGGGATA | 0.0226
CATGTAGG | -0.111
ACTCGTGG | -0.126
AAAGGGTC | 0.00144
GCAGCTAC | 0.174
CTTACGCA | 0.0588
CGCGAGGA | 0.0516
ATCCACGC | -0.0894

Sample 3
Target: Centromere-binding protein 1, full length, His-tagged (CBF1, Saccharomyces cerevisiae, UniProt P17106, residues 1-351)
Chain of UniProt P17106 (whole entry, looked up): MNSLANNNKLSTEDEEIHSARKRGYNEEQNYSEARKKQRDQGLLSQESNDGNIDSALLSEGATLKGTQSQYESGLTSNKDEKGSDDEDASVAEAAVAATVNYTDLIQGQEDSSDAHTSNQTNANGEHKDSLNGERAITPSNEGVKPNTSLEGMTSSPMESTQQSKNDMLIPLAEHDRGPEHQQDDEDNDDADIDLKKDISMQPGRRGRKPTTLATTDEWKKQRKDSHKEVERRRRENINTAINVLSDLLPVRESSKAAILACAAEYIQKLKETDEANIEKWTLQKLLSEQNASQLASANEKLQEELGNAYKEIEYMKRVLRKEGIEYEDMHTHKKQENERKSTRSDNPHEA
Method: competition protein-binding microarray
Form: double-stranded DNA, one strand shown
Medium: in vitro
Tested at: 2 µM
Notes: whole 60-bp probe, lowest competitor level
Added: Pho4 competitor, 0.05 µM
Reading: higher = stronger binding
Oligonucleotide | fluorescence intensity [a.u.]
AACGACTTCGTCAAGTCCGTGACGGAGTCGGGGTACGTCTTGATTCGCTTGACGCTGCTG | 64.9
CCAGCAGTGCCTGCCCACGTGAGCTAGGCGACATCCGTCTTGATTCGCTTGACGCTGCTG | 1310
AAGCGGATGGACTGGCACGCTCACCATCTGGGTTGGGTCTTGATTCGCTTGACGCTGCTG | 47.4
GATAGTAACTCGAGTCACGTGCTTTCTAACCATCAAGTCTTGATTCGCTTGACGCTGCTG | 10500
CTTCTGTAAATTTGCTTGGTGGGTGGACGCGCCCCGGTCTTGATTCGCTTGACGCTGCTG | 92.1
GGAGTGAAAAGGGCGCTCAAAAATAGGCATATCTCAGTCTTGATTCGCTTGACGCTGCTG | 66
CTTCTGTAAATTTGTGACGTGGGTGGACGCGCCCCGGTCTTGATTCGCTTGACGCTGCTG | 82.4
AAATTACTAAGTTGTCACACGACTTACCCCGTATGAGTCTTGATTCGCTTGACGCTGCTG | 140
TTCTAGGTTTAACTTCACGTGTTCCCCACCGAGGCGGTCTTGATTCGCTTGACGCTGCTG | 1100
CAAACGTCTGTTTGCCACGGGCATCGCAAATCTTACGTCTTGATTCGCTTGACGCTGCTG | 70.9
CACTGTTCTTTAAAGCACGTGCTTTTGGTACCAACCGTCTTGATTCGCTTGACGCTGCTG | 3410
AAATTACTAAGTTGTCGGGTGGGTGACGCCGTATGAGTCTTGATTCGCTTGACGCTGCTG | 58.4
GTCAAGCTGAAATCTCACGTGGGTACAGACGGGGAAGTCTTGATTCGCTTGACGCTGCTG | 829
CATACCCAACCTTGCGATGTGGGTGAAGATATTTGTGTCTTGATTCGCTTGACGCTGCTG | 71.6
CTTCTGTAAATTTGAAGTGTGGGTGGACGCGCCCCGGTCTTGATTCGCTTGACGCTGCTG | 82.6
TACATATAACGTATACGTTAGAAAAATTTGAATACAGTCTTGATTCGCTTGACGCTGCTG | 87
CTTTCCCGATCTTGCGCGGTGGGTGTAGCACATTTGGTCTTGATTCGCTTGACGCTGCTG | 68.2
CGGGGTTAAGTTTGCTTAGTGGGTGGCTTGCAGCAGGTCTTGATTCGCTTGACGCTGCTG | 82
AAAAAAGGGGGCAGCAACGTGCTTTACATACAAACCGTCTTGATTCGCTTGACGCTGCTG | 187

Sample 4
Target: RING finger protein unkempt homolog, zinc fingers 1-6, GST-SBP tag (UNK, Homo sapiens, UniProt Q9C0B0, residues 30-357)
Method: RNA Bind-n-Seq
Form: RNA
Medium: in vitro
Tested at: not given
Notes: RNA with constant flanks, ends assumed
Baseline: input RNA pool
Reading: higher = stronger binding
Residues (chain): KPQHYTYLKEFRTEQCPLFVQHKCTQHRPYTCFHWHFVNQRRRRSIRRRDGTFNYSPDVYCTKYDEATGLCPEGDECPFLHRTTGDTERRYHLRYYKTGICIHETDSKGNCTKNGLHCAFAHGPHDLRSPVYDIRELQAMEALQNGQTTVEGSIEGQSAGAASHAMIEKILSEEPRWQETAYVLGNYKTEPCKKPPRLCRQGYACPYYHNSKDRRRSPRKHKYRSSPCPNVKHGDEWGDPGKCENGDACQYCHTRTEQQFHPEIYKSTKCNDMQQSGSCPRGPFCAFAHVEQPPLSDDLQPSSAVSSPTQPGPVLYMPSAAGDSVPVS
Oligonucleotide | bound/input enrichment [ratio]
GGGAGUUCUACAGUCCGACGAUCACUGUCCAGGAGGUUCACCCAGGAGAACCUCCAUUCGACCUAGAGCUUUUCUACGUUAAGUACCGAAAUUUUUCCUAUUUACAUUGUAAAUGGGCCACAAUGGAAGAACUGGAAAAGGAUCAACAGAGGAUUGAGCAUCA | 0.209
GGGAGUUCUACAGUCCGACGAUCGCUGUGGAUUCAGAGAUACUGGAGAUGCCACCUGAAAAAGCAGAUGGAGUAGUGGAGGGGACCGAUGUAAAUGGACCAAAAGCACAGCUGAUGUUGCGGUAUCCAGAUGGAAAAAGGGAACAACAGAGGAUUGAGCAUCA | 0.39
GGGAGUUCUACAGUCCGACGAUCAGUGGGAAUAUCACUUUUGAUGAGAUUGUCAACAUUGCUCGACAGAUGCGGCACCGAUCCUCCGCCAGAGAACUCUCUGGAACCAUUAAAGAGAUCCUGGGGACUGCCCAGUCAGUGGGCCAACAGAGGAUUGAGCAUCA | 0.201
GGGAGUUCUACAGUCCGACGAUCAAAUUCAAAGGCCCCUUCACAGAUGUAGUCACUACAAAUCUUAAAUUGCGAAAUCCAUCGGACCGAAAAGUGUGUUUCAAAGUGAAGACUACAGCACCUCGCCGGUACUGUGUGAGGCCCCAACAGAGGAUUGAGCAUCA | 0.259
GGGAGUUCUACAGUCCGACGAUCCUUUGCGAGCAGAAACGGGAGACCUGUGCAGAUGGUGAGGCAGCAGGCUGCACUAUCAACAACCGCCUAUCCAACAUCCAGUGGCUUCGAAAGAUGAGUUCUGAUGGACUGGGCUCCCGCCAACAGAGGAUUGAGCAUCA | 0.0748
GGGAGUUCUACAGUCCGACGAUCAAAAUAUAUAUAAAUUUACUUCACUGCUUUUUUUUUUUUUGGACAUAAGGGCUGUGUGUAUACCGCCCCUGUUGGCCUCAAAACUCACAGUCCUCUCAUCAAGAGGUAGGAUUCUGGGCACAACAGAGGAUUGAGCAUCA | 0.853
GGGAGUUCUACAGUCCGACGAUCCUCACGGCCCAGCAUGAGAACUUCAGGAAAAAGCAGAUUGAAGAGCUGAAGGGACAAGAAGUCCGUCCUAAAGUGUACUUCAUGAAGCAGACCAUUGGGAAUUCCUGUGGCACAAUCGGACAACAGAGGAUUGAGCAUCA | 0.116
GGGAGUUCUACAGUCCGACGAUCUGUCUGGACCGGCACUGGGUUCUGCAGGGUUGAAGACGGGCAACAGAUGCCAGAAGCUCCCUCCGACUGUCACCUGAGUCUGGAGACCGGCUCGCAGCCCCACAGCAUCACACUGCAAGUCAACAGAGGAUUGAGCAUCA | 0.131

A few entries again (sample 2):
Oligonucleotide | E-score
AGATTGCC | 0.044
AGGCCTAT | -0.1
GCAGGCAC | 0.0849
GGTGGTAC | -0.0183
CTAACTGA | 0.0678
AGCACTAT | -0.152
CCTACCCA | -0.203
GCGGGATA | 0.0226
CATGTAGG | -0.111
